Experimental data pooled from the literature.
A part holds a random share of what one study measured. Several values in a cell are separate wells, animals, samples, runs or records.
Chain of UniProt P80192 (whole entry, looked up): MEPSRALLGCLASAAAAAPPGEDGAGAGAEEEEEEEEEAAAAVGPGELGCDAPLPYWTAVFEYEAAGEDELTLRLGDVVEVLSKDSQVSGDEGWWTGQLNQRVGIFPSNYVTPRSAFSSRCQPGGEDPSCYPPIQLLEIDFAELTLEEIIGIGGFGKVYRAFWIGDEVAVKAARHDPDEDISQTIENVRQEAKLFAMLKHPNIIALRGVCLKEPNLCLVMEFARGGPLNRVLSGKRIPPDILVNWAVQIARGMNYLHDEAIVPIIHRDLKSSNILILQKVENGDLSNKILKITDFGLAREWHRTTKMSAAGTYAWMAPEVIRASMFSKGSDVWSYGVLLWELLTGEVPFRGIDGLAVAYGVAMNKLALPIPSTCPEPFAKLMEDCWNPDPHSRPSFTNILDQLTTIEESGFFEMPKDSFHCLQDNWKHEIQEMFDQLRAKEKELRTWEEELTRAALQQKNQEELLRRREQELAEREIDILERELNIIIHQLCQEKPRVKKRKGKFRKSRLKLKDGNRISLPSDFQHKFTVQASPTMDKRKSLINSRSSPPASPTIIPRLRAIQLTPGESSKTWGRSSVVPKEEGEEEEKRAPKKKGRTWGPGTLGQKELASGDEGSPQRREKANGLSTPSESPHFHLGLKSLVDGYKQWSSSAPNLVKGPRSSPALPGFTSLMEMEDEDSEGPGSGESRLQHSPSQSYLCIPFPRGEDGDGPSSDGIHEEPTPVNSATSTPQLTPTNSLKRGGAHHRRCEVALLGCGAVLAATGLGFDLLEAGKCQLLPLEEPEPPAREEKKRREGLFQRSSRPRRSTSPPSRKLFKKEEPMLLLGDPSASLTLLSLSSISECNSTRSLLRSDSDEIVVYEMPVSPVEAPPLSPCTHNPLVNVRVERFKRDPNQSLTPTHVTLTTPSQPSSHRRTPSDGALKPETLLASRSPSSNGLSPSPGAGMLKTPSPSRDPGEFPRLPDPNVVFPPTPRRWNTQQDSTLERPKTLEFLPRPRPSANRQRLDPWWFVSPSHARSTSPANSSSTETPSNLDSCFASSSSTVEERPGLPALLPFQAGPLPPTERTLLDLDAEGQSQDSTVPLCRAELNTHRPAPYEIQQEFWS
Chain of UniProt O75914 (whole entry, looked up): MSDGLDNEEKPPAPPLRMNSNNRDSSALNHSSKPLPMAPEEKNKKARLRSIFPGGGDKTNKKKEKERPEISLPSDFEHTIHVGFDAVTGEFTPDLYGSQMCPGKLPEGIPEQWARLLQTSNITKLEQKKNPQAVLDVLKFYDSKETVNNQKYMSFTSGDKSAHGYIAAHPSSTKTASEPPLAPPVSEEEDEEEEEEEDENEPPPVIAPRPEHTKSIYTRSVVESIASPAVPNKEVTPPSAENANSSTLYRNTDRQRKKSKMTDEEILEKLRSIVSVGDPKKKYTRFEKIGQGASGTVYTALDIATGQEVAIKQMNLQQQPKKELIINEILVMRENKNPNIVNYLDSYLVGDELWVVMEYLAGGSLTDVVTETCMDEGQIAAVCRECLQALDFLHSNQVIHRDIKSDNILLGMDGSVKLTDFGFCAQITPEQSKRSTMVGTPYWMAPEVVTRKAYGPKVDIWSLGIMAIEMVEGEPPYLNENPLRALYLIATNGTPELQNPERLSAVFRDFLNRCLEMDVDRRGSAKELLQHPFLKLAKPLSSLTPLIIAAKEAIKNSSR
Chain of UniProt P07332 (whole entry, looked up): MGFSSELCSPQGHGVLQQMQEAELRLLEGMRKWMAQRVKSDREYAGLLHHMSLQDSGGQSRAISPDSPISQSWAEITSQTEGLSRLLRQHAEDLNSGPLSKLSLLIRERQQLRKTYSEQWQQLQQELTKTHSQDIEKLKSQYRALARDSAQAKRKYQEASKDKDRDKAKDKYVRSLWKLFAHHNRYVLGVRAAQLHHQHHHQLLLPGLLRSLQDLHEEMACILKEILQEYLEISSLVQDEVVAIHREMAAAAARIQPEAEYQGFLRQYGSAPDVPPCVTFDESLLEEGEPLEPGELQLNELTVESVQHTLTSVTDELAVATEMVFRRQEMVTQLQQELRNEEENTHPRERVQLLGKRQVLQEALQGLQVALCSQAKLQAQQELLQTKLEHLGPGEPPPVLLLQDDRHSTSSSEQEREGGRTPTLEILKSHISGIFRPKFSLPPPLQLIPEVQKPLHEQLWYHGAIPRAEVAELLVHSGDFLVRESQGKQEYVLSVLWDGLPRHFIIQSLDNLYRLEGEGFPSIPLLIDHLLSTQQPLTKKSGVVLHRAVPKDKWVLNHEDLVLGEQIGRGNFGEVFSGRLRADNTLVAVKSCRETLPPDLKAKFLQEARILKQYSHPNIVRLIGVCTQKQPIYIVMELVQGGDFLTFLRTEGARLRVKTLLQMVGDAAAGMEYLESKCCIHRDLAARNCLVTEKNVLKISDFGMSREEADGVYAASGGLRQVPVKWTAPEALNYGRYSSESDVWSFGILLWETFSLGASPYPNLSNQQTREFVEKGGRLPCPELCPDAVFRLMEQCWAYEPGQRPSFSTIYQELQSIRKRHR
Chain of UniProt P16234 (whole entry, looked up): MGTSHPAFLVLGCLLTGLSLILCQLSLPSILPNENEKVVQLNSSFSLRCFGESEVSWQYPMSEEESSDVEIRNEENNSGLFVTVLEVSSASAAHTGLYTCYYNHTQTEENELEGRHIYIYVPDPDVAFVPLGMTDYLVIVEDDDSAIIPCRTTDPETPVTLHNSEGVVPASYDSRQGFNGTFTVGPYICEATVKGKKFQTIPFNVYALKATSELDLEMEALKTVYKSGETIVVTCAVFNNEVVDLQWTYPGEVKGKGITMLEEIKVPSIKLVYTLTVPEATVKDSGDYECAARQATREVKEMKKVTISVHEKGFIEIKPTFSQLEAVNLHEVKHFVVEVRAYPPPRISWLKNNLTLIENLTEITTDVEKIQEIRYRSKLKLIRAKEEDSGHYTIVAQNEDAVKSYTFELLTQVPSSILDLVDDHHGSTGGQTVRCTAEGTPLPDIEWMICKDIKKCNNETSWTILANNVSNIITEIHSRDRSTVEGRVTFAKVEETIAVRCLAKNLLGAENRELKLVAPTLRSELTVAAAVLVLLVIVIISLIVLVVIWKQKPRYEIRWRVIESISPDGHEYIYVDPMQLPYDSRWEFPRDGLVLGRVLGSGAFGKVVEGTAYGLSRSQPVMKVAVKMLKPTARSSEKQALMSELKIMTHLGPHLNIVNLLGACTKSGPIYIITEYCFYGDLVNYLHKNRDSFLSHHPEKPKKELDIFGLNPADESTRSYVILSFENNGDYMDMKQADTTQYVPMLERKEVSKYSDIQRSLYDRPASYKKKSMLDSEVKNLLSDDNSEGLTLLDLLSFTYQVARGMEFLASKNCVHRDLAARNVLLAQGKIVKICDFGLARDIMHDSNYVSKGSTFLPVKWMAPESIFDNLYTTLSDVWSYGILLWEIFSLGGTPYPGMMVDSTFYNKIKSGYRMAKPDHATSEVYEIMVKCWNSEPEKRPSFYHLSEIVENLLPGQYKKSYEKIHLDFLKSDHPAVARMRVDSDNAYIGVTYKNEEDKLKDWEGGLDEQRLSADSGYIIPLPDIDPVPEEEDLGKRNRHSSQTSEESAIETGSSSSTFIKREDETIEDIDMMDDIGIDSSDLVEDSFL

Block 1 — read-out: binding; technique: competition with immobilised ligand; concentration: 1 µM; endpoint: remaining binding
Structure (SMILES): COc1cc(-c2nc3ccc(C(=O)NCCCN4CCN(c5cccc(C)c5C)CC4)cc3n2C2CCC2)cc(OC)c1OC
Receptor-type tyrosine-protein kinase FLT3 (FLT3, Homo sapiens, UniProt P36888, N841I): 83%
ALK tyrosine kinase receptor (ALK, Homo sapiens, UniProt Q9UM73): 73%
Serine/threonine-protein kinase 26 (STK26, Homo sapiens, UniProt Q9P289): 89%
Serine/threonine-protein kinase 36 (STK36, Homo sapiens, UniProt Q9NRP7): 81%
Homeodomain-interacting protein kinase 3 (HIPK3, Homo sapiens, UniProt Q9H422): 75%
Serine/threonine-protein kinase/endoribonuclease IRE1 (ERN1, Homo sapiens, UniProt O75460): 85%
Dual specificity protein kinase CLK4 (CLK4, Homo sapiens, UniProt Q9HAZ1): 98%
Tyrosine-protein kinase Fes/Fps (FES, Homo sapiens, UniProt P07332): 85%
Mitogen-activated protein kinase kinase kinase 6 (MAP3K6, Homo sapiens, UniProt O95382): 79%
Platelet-derived growth factor receptor alpha (PDGFRA, Homo sapiens, UniProt P16234): 92%
Calcium/calmodulin-dependent protein kinase type II subunit beta (CAMK2B, Homo sapiens, UniProt Q13554): 93%
TGF-beta receptor type-2 (TGFBR2, Homo sapiens, UniProt P37173): 81%
Tyrosine-protein kinase ABL1, phosphorylated (ABL1, Homo sapiens, UniProt P00519): 74%
Serine/threonine-protein kinase RIO3 (RIOK3, Homo sapiens, UniProt O14730): 96%

Block 2 — time: 6 days; endpoint: viability
SMILES: Cc1ncsc1-c1ccc(C(CO)NC(=O)C2CC(O)CN2C(=O)C(C(C)C)n2cc(-c3ccc(COc4c(-c5c(C)c(F)cc6[nH]ncc56)c(C5CC5)cc5c(N6CC7CC6CN7)nc(OC6CCOCC6)nc45)cc3)nn2)cc1 (centres unmarked)
HT-29; cell growth or viability, ATP luminescence; 1 nM: 118% and 100% and 119% and 90.4%
A-375; cell growth or viability, ATP luminescence; 0.3 µM: 90.1% and 86.1% and 93.2% and 84.1%
HPAC; cell growth or viability, ATP luminescence; 3 nM: 79.9% and 73.4% and 57.9% and 84.6%
AsPC-1; CellTiter-Glo; 3 µM; relative to: DMSO: 4.93% and 5.89% and 4.32%
A-375; cell growth or viability, ATP luminescence; 1 µM: 85.1% and 92.9% and 85.9% and 86%
GP2d; cell growth or viability, ATP luminescence; 0.1 µM: 28.3% and 39.6% and 33.6% and 29.7%
BXPC-3; cell growth or viability, ATP luminescence; 10 µM: 108% and 116% and 79% and 87.2%
PSN1; cell growth or viability, ATP luminescence; 1 µM: 98.8% and 83.5% and 94.1% and 94.4%
SW-403; cell growth or viability, ATP luminescence; 3 µM: 8.68% and 7.85% and 9.28% and 10.3%
SK-CO-1; cell growth or viability, ATP luminescence; 1 nM: 106% and 103% and 102% and 93.9%

Block 3 — read-out: thermal unfolding; technique: differential scanning fluorimetry; concentration: 5.5 µM; reading: higher = more unfolded; endpoint: SYPRO Orange fluorescence
Structure (SMILES): C[C@@H]1CN(c2ccc(-c3cc(C(=O)NCCOCCOCCOCCOCCNC(=O)/C=C/c4[nH]cc(C(=O)N[C@@H](CC(N)=O)c5ccc(F)c(Cl)c5)c4-c4ccc(Cl)cc4F)ccc3F)cc2NC(=O)c2c[nH]c(=O)cc2C(F)(F)F)C[C@H](C)N1C
DCAF1: DDB1- and CUL4-associated factor 1 (DCAF1, Homo sapiens, UniProt Q9Y4B6)
Chain of UniProt Q9Y4B6 (whole entry, looked up): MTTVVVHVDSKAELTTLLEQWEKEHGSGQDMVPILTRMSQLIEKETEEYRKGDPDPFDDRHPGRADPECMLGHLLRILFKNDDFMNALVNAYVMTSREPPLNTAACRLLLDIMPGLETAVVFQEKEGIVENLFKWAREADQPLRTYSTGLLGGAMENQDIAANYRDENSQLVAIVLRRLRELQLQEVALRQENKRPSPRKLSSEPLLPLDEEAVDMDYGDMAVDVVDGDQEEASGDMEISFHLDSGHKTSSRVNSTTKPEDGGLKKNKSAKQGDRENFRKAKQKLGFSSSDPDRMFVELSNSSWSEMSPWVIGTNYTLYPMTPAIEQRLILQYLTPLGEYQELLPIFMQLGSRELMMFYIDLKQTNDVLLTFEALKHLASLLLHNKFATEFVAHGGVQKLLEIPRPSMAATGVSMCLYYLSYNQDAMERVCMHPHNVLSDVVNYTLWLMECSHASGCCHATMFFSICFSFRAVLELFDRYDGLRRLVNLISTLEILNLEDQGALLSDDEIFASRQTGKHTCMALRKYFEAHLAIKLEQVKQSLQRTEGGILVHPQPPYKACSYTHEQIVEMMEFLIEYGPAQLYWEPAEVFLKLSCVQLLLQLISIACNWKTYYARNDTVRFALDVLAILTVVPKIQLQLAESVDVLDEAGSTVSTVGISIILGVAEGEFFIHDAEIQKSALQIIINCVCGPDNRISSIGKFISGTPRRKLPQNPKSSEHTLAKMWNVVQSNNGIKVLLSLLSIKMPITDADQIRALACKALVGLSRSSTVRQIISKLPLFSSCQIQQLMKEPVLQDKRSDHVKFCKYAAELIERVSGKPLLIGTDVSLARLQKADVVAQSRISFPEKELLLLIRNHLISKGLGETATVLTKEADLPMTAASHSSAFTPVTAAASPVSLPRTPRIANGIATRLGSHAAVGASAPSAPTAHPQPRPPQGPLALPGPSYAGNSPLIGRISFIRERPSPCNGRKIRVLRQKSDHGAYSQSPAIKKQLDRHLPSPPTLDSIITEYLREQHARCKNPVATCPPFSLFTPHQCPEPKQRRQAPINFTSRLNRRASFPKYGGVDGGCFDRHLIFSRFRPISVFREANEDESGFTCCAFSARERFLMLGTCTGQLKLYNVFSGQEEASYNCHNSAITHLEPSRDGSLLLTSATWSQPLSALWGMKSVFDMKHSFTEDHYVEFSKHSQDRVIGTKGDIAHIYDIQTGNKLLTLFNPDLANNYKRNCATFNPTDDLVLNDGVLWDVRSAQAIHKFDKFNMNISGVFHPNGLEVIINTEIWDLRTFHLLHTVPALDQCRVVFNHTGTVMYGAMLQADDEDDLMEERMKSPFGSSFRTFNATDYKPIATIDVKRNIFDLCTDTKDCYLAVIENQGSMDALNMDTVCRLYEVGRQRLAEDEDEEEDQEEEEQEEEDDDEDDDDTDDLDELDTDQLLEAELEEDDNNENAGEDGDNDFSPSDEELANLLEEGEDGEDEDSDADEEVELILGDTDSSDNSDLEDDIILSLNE
WDR5: WD repeat-containing protein 5 (WDR5, Homo sapiens, UniProt P61964)
DCAF1; 63.61 °C: 55800 a.u.
DCAF1; 66.21 °C: 59400 a.u.
DCAF1; 93.81 °C: 30800 a.u.
WDR5; 54.21 °C: 16800 a.u.
DCAF1; 55.61 °C: 22900 a.u.
DCAF1; 94.41 °C: 30300 a.u.
DCAF1; 59.21 °C: 36900 a.u.
DCAF1; 31 °C: 9640 a.u.
DCAF1; 25.6 °C: 8980 a.u.
WDR5; 59.01 °C: 16000 a.u.
WDR5; 72.81 °C: 20800 a.u.

Block 4 — concentration: 1 µM; endpoint: remaining binding
Structure (SMILES): CC[C@@]1(c2ccccc2)C2=C(CC(C)(C)CC2=O)Nc2n[nH]cc21
Inhibitor of nuclear factor kappa-B kinase subunit epsilon (IKBKE, Homo sapiens, UniProt Q14164); binding, competition with immobilised ligand: 100%
Phosphatidylinositol 4,5-bisphosphate 3-kinase catalytic subunit alpha isoform (PIK3CA, Homo sapiens, UniProt P42336, M1043I); kinase binding, KINOMEscan; relative to: DMSO control: 100%
Bone morphogenetic protein receptor type-1B (BMPR1B, Homo sapiens, UniProt O00238); kinase binding, KINOMEscan; relative to: DMSO control: 100%
STE20/SPS1-related proline-alanine-rich protein kinase (STK39, Homo sapiens, UniProt Q9UEW8); kinase binding, KINOMEscan; relative to: DMSO control: 100%
Serine/threonine-protein kinase TBK1 (TBK1, Homo sapiens, UniProt Q9UHD2); binding, competition with immobilised ligand: 98%
Dual specificity tyrosine-phosphorylation-regulated kinase 1A (DYRK1A, Homo sapiens, UniProt Q13627); kinase binding, KINOMEscan; relative to: DMSO control: 95%
Myosin light chain kinase family member 4 (MYLK4, Homo sapiens, UniProt Q86YV6); kinase binding, KINOMEscan; relative to: DMSO control: 97%
Receptor-interacting serine/threonine-protein kinase 1 (RIPK1, Homo sapiens, UniProt Q13546); binding, competition with immobilised ligand: 98%
Tyrosine-protein kinase receptor Tie-1 (TIE1, Homo sapiens, UniProt P35590); kinase binding, KINOMEscan; relative to: DMSO control: 100%
Casein kinase I isoform alpha (CSNK1A1, Homo sapiens, UniProt P48729); kinase binding, KINOMEscan; relative to: DMSO control: 95%
Angiopoietin-1 receptor (TEK, Homo sapiens, UniProt Q02763); binding, competition with immobilised ligand: 100%
Rho-associated protein kinase 1 (ROCK1, Homo sapiens, UniProt Q13464); kinase binding, KINOMEscan; relative to: DMSO control: 91%
Serine/threonine-protein kinase PAK 3 (PAK3, Homo sapiens, UniProt O75914); binding, competition with immobilised ligand: 100%
Mitogen-activated protein kinase kinase kinase 9 (MAP3K9, Homo sapiens, UniProt P80192); binding, competition with immobilised ligand: 100%
Mitogen-activated protein kinase kinase kinase 15 (MAP3K15, Homo sapiens, UniProt Q6ZN16); binding, competition with immobilised ligand: 85%
Mitogen-activated protein kinase 11 (MAPK11, Homo sapiens, UniProt Q15759); kinase binding, KINOMEscan; relative to: DMSO control: 100%
Epithelial discoidin domain-containing receptor 1 (DDR1, Homo sapiens, UniProt Q08345); kinase binding, KINOMEscan; relative to: DMSO control: 100%
Serine/threonine-protein kinase SIK2 (SIK2, Homo sapiens, UniProt Q9H0K1); binding, competition with immobilised ligand: 78%

Some of these lines once more (block 1):
Calcium/calmodulin-dependent protein kinase type II subunit beta (CAMK2B, Homo sapiens, UniProt Q13554): 93%
ALK tyrosine kinase receptor (ALK, Homo sapiens, UniProt Q9UM73): 73%
Tyrosine-protein kinase Fes/Fps (FES, Homo sapiens, UniProt P07332): 85%
Serine/threonine-protein kinase/endoribonuclease IRE1 (ERN1, Homo sapiens, UniProt O75460): 85%
TGF-beta receptor type-2 (TGFBR2, Homo sapiens, UniProt P37173): 81%
Mitogen-activated protein kinase kinase kinase 6 (MAP3K6, Homo sapiens, UniProt O95382): 79%
Serine/threonine-protein kinase RIO3 (RIOK3, Homo sapiens, UniProt O14730): 96%
Serine/threonine-protein kinase 26 (STK26, Homo sapiens, UniProt Q9P289): 89%
